Results gathered from unrelated publications.
Each numbered part is a random draw from the data of one study; scales do not carry over between parts. Positions count from the first letter of the parent shown.

Study 1
Target: CCNF, cyclin fold, Cln2 fusion (human)
Method: yeast growth competition, sequencing
Sample: yeast
Setting: strong parent motif
Reference: not given
Direction: higher = stronger binding
Measurement: normalised enrichment score
Starting sequence: CDC25A docking peptide (human); PPHRRRLLFACSP
R5G: 2.24
F9E: 1.59
L7S: 1.17
P13Q: 6.82
A10T: 8.21
P13W: 5.68
P1Q: 7.82
F9S: 1.86
A10H: 7.79
C11V: 8.55
L7E: 0.625
P2R: 7.07
L8Y: 8.66
F9G: 1.23
L7G: 0.919
P1L: 7.09
R5M: 2.13

Study 2
Target: RING finger protein unkempt homolog, zinc fingers 1-6, GST-SBP tag (UNK, Homo sapiens, UniProt Q9C0B0, residues 30-357)
Method: RNA Bind-n-Seq
Molecule type: RNA
Sample: in vitro
Concentration: not given
Setting: RNA with constant flanks, human and mouse sites, ends assumed
Reference: input RNA pool
Direction: higher = stronger binding
Measurement: bound/input enrichment
Residues (chain): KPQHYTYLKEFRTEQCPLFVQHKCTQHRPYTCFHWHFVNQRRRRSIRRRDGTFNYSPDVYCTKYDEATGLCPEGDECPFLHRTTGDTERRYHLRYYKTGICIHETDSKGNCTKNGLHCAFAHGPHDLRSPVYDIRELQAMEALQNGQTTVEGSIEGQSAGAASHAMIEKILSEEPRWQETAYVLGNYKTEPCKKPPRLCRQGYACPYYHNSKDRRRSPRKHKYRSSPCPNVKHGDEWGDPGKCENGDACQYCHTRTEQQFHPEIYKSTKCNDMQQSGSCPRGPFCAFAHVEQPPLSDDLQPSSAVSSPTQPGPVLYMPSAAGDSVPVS
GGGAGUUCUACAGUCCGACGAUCUUUCGCCUGGCGCUGGGCAGCUUCGUGGAAGAGUACAACAACAAGGUUCAGCUUGUUGGUUUAGAUGAGGAGAGUUCAGAGUUUAUUUGCCGAAACACCUUUGACCACCCGUACCCUACCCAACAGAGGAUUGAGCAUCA: 0.158 ratio
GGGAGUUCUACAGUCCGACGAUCUUUCAUCUUUUGGAGUUAGAAAAGGUCCACGAACUGUGCGAUAACUUCUGCCACCGAUACAUUAGCUGUUUGAAGGGGAAAAUGCCCAUCGACCUCGUCAUUGAUGAAAGAGACGGCAGCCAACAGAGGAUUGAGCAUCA: 0.0952 ratio
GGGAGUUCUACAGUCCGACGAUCAACGAUCUCCUCUGCAAUGUUGAUGUCAGUGACCUAUCUUUUCAUGACUCGCUGGCUACUUUUGUUGCCAUCCUCAUCGCUCGGCAGUGUUUGCUCCUGGAAGAUCUGAUUCGCUGUGCUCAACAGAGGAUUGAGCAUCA: 0.272 ratio
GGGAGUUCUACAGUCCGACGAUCUUUCCAGUGGAAUUCCUUAUCCAGGUGACUAAGUUAUCAAAAAUUCUCAUGAUUAAAAAAGAGCAUAUAAAGAAAUUAAGGGAGAUGAACACAGAAGCAGAAAAGCUGAAAUCCUAUUCCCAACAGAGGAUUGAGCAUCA: 0.255 ratio
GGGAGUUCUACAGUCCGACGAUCAAGGUGGAGCCGAGCAGCCAGAGCCCUGGGCGUUCACCCAGGCUUCCACGUUCCCCUCGCUUGGGUCACCGUCGAACCAACAGUACGGGAGGGAGUUCGGGAAGCAGUGUUGGAGGUGGCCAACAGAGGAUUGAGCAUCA: 0.212 ratio
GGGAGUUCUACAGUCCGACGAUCAAGUCUCAUUCGCCUUUGUCUUGUACUUCUGUGUUCAUUUUUUUUUUUUUUUUUGGCUAGAGUUUCCACUAUCCCAAUCAAAGAAUUACAGUACACAUCCCCAGAAUCCAUAAAUGUGUUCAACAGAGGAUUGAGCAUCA: 0.23 ratio
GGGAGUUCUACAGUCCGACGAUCGGCUGUGGAAUCAGUCCAGAAAUUCAUUGUGAUGGUGGCCACACAUUCAGACCUCCUUCUGUUAGCAACUACUGCAUCUGUGACAUUACAAAUGGCAAUCACAGUGUGGAUGAGAUGCCGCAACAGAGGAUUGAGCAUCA: 0.26 ratio
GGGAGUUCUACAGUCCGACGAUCAAGUCCAGAGGAAAAGAACCCAACUGAGUGCAUGCCAGUUCAGAGUACAGACUUCUCACCUUGACGUUUUUACACAUGAACUUCCAAGAAUUUGGGAUCCAAGUUGUUUAUAUAAUAAUGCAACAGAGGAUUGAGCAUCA: 0.121 ratio

Study 3
Target: RNA binding protein fox-1 homolog 2, RRM domain, GST-SBP tag (RBFOX2, Homo sapiens, UniProt O43251-10, residues 100-194)
Method: RNA Bind-n-Seq
Molecule type: RNA
Sample: in vitro
Concentration: 365 nM
Setting: natural RNA segment, single round, ends assumed
Reference: no-protein control
Direction: higher = stronger binding
Measurement: RBNS enrichment (R)
Residues (chain): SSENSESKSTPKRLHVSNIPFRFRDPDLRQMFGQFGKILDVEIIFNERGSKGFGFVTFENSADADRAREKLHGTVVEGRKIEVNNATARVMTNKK
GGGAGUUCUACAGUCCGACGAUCUAGAAAUCCAUGAACACUAAAGGACUUCAUUGAUUUUUUCAGAGAGUAGAAAACAACUUAGUUUUUCUUUUUUCCUGAAUGCGUCAUAGGCUUGUGAGUGAUUUUUGUCCUGGAAUUCUCGGGUGCCAA: 0.62
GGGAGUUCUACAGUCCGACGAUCAGUACAGACUUUUUUUUUUUUUUAAACAAAAAAAGCAUUGUAACUUAUGAACCUUUACAUCCAGAUAGGUUACCAGUAACGGAACAGUAUCCAGUACUCCUGGUUCCUAGUGGAAUUCUCGGGUGCCAA: 0.288
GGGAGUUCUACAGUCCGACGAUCUGAUGGAGAGCCAGCCAGUGGGGCUGUCAGCAGUGGGGGGCUUUUUAAAAGAAAACUAUUUUGAUGAAUAUAUUUAAAAAACCUUUUUUUAUUGUGGAGCAUAGGAAUUGUGGAAUUCUCGGGUGCCAA: 0.774
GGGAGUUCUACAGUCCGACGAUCUUGUAGUCAGCAACCAUUUUACUUUGUGUGUUUUUUCACGACUGAACACCAGCUGCUAUCAAGCAAGCUUAUAUCAUGUAAAUUAUAUGAAUUAGGAGAUGUUUUGGUAAUGGAAUUCUCGGGUGCCAA: 0.286
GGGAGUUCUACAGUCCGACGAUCAGCCUGUGUUAGAGCACAGAUUUACCUAGGCUUGAAGAUUUGGAAGAAAUAAUAUGUAAGAAUGGCCUCAAGGCAGACCACUUUAAGUUUGGCUAGACUUCAUAUCGUGGUGGAAUUCUCGGGUGCCAA: 0.508
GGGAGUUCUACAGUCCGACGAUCAUUUUAGUAUAGUUUAAAGUUGAGCUGCCUUUUCUUAUGUAGCUAUUUAAAAUAUUUCUGAAGUUCAGUAAUUUGGAUGCCUUCAUUAGUAGAUGCUGUCCUAUAUACCUUGGAAUUCUCGGGUGCCAA: 0.356
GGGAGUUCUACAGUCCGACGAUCUGAUUUAAUAUUUUCACAGACUAGGCCAUGUGCAAAAUUAGAGUUCCCUGUGUAACCCCAGCCAGCAGGCCCAGCAUGGCUGCGUGCACUCAUUGCAGUCUUGUUGAACCUGGAAUUCUCGGGUGCCAA: 0.466
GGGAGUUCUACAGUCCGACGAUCAACCAUUUAAAAUAAUGGAUGGGUUACUAUGAGCAAUUUCGCUUUCAGAACCCCCUUGUUUUAGUAUAUGAAAAAGCCUAAUGCGCAUUAAUGAGGUUGAAGAGACUAUGUGGAAUUCUCGGGUGCCAA: 0.588

Study 4
Target: ABI1, truncated, D143A, DHFR fusion (Arabidopsis thaliana)
Method: DHFR PCA, deep sequencing
Sample: yeast
Setting: methotrexate growth selection, single substitutions
Together with: (+)-ABA 0.0091 µM
Reference: wild-type fitted maximum
Direction: higher = stronger binding
Measurement: relative binding score
Starting sequence: PYL1, truncated, DHFR fusion (Arabidopsis thaliana); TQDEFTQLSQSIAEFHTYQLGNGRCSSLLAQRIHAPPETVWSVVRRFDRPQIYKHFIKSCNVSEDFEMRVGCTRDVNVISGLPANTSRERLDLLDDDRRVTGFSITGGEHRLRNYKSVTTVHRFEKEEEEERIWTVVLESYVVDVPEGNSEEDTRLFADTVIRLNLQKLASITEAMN
F5I: 34.8%
A35P: -3.04%
G71E: -1.23%
D65I: -6.23%
C25A: 18.2%
V78F: 112%
G108T: -0.908%
Y53S: 2.33%
D96P: -11.6%
P37Y: 1.04%
Q2M: 54.2%
T6F: 44.2%
L8Q: 5.92%
T119R: -3.49%
V40T: -1.68%
N85C: 55%
C25S: -0.273%
N22I: 23%
G107H: 10.3%

Repeated from above (study 4):
D96P: -11.6%
P37Y: 1.04%
Q2M: 54.2%
